Experimental data collected from several papers.
Numbered parts are unrelated; each lists some results of a single study. Substitutions count along the parent as printed.

Series 1
Target: FOSB, bZIP domain (human)
Technique: DHFR protein complementation
Medium: yeast
Notes: single substitutions, most at no-binding floor
Baseline: wild-type JUN-FOS pair
Reading: higher = stronger binding
Starting sequence: JUN, bZIP domain (human); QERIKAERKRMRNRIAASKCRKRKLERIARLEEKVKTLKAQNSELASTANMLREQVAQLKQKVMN; partner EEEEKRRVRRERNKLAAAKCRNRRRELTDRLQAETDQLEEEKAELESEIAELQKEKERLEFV
Change	binding fitness
Q41V	-0.122 natural log
N42L	-0.0733 natural log
Q58H	-0.121 natural log
S47Y	-0.17 natural log
L59G	-1 natural log
S47W	-0.188 natural log
I28T	-0.233 natural log
T48D	-0.504 natural log
T37Y	-0.111 natural log
V35L	-0.125 natural log
K39S	-0.436 natural log
E32Q	-0.186 natural log
K34E	-0.294 natural log
S47I	0.026 natural log
S43V	-0.226 natural log
E32G	-0.339 natural log
V35T	-0.388 natural log
T48K	-0.00139 natural log
E44R	-0.165 natural log

Series 2
Target: Ras GTPase-activating protein-binding protein 1, full length (G3BP1, Homo sapiens, UniProt Q13283)
Chain of UniProt Q13283 (whole entry, looked up): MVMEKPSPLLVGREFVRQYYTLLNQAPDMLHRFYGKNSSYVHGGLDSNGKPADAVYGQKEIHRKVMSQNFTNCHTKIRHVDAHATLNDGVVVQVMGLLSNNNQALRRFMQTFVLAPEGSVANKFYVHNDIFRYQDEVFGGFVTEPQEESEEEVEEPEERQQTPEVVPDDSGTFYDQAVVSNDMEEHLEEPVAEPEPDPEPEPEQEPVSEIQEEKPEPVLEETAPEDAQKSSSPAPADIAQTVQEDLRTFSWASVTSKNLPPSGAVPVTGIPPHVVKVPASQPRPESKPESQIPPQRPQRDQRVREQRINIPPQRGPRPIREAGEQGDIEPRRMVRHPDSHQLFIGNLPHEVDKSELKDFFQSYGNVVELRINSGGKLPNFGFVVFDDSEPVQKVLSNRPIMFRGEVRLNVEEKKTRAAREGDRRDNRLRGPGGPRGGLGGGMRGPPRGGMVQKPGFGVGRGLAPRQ
Technique: RNA Bind-n-Seq
Molecule type: RNA
Medium: in vitro
Tested at: 200 nM
Notes: whole 134-nt RNA, ends assumed
Added: 150 mM KCl
Baseline: input library
Reading: higher = stronger binding
All sequences stand within: GGGAGUUCUACAGUCCGACGAUC … UGGAAUUCUCGGGUGUCAAGG
Oligonucleotide	log2 enrichment
UCCUGUGCUACACAUCGUAUGUACCGAAUCGGGGUUUUUGGGGUUUUUGGGGAAAGGGGAAAGUAUUAUGUUACGCCGUUCGGAUCUGCA	0.865
UGAUGGGACAACACCCGAAAGGAUAGCACAAAUAACAGGACCUCCAGACCGAUGUCAACAUGCUGCAGAAAUUAUUACAGACCUUCUUCG	0.471
UGGGAGGUGGCUUUUGUUUAUUUUUUUAGCUCAUUUCCAGGGGUGGGAAUUUUUUUUUAAUAUGUGUCAUGAAUAAAGUUGUUUUUGAAA	0.229
UAACUUUAGAGGAGGAUCUGAUGGAUAUGGCAGUGGACGUGGACUUGGGGAUGGCUAUAAUGGGUAUGGAGGAGGACCUGGAGGUGGCAA	0.283
CUGUGCUACACAUCGUAUGUACCGAAUCGGGGCCCCCCGGGGCCCCCCGGGGCCCCCCGGGAAAGUAUUAUGUUACGCCGUUCGGAUCUG	-1.51
CCUCUGGACGAGACCAGCCAGAUGAGCGACCUCCCGGUGAAGGUGAUCCACGUGGAGAGUGGGAAGAUCCUCACAGGCACAGAUGCCCCC	0.645
CAAGUCCUGUGCUACACAUCGUAUGUACCGAAUCGGGUGGGUUUUUUUGGGAGGGAAAGUAUUAUGUUACGCCGUUCGGAUCUGCACUUC	0.362
ACCAUGCAGGUGGGCAUCUUUGGGAAGUGGGGCAAGGGGGGGAUAGGGAGGGGGGUAACACUUUGGGAUCAGGUGGUCCCAGGUCGUUUC	0.825
GCAGGAAGUAAAAACAAAUGGAAAUGCUCCGGAUAGUGGCAGGGGUGGGGGUUGCUAAGGAAAGGGUGGGAUGGGAGUGGGUAAAGAGUU	1.37
CUCAAGUCCUGUGCUACACAUCGUAUGUACCGAAUCGGUUGGUUGGGGUUGGGGAAAGUAUUAUGUUACGCCGUUCGGAUCUGCACUUCC	-0.0814

Series 3
Target: ABI1, truncated, D143A, DHFR fusion (Arabidopsis thaliana)
Technique: DHFR PCA, deep sequencing
Medium: yeast
Notes: methotrexate growth selection, single substitutions
Added: (+)-ABA 1.4 µM
Baseline: wild-type fitted maximum
Reading: higher = stronger binding
Starting sequence: PYL1, truncated, DHFR fusion (Arabidopsis thaliana); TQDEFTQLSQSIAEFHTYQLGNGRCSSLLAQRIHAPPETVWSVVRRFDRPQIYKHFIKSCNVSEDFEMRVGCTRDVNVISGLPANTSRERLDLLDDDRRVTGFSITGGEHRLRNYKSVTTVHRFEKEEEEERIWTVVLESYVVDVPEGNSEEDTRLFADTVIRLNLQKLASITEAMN; partner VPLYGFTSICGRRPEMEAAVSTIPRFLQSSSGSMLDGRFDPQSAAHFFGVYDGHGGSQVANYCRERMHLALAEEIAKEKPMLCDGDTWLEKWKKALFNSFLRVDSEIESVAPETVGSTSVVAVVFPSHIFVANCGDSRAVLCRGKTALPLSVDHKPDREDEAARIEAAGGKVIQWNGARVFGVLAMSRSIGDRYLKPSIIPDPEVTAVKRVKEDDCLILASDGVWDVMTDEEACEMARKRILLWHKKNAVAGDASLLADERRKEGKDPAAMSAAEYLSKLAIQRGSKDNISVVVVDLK
Change	relative binding score [%]
N85S	78.6
S87V	38.6
Q7T	58.5
M176P	30
V70A	30.9
S140N	-7.92
E147D	55.2
N149W	5.27
I172V	62.3
R155A	4.04
D48S	4.69
V100H	-0.563
E129Y	48.7
E152Q	38.8
H16S	-8.63
K58F	2.57
V44Y	-25.5
K54N	5.93
L138S	2.83
S63L	24.1
W41R	1.77
V118T	66.8
W41M	-1.86
N77T	81.4

Series 4
Target: PABPC1L2, full length, GST fusion (mouse, UniProt A0ABA7IW68)
Technique: RNAcompete
Molecule type: RNA
Medium: in vitro
Tested at: 20 nM
Notes: 7-mer, probes averaged, single round
Baseline: mean of 7-mers
Reading: higher = stronger binding
Target sequence (chain): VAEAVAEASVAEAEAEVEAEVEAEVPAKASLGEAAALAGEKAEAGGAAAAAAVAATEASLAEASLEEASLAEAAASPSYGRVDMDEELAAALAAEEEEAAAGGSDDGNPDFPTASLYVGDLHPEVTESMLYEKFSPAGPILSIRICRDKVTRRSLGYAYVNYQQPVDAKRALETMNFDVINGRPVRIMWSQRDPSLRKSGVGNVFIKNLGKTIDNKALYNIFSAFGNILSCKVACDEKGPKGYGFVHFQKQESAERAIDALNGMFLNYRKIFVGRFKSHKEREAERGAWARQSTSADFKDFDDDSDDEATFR
Oligonucleotide	7-mer Z-score
AUAGGAA	-0.0319
GUACGAC	-0.191
CUUGAGG	-0.157
CCCGUAU	-0.277
CUAUACA	-0.0355
GGAGUAG	0.158
AAACAAU	4.49
UUAGCUC	-0.235
AGGUACA	0.0605
GAUCCGU	-0.311
CCCAGGU	-0.291
UGCUCCA	-0.387
CUCAUAG	-0.258
AAGUACU	0.0932
GGGGUCC	0.0207
UUCGUCC	-0.518
UCAAACU	-0.166
UAGGUUA	0.00436
UAAAGAA	1.72
CCACCCU	-0.237
UAACCCG	-0.277
CUCUGGC	-0.24
ACCAACC	-0.0627
UAUUGUG	-0.188
UCGGAUG	-0.148

Series 5
Target: CCND2, cyclin fold, Cln2 fusion (human)
Technique: yeast growth competition, sequencing
Medium: yeast
Notes: weak parent motif
Baseline: not given
Reading: higher = stronger binding
Starting sequence: ORC1 docking peptide (human); PRARKRLELGNLG
Change	normalised enrichment score
PRARKRLELVNLG [G10V]	0.0427
PRARKRLELGNLH [G13H]	0.134
PRARKNLELGNLG [R6N]	0.129
PRHRKRLELGNLG [A3H]	0.33
QRARKRLELGNLG [P1Q]	0.361
FRARKRLELGNLG [P1F]	-0.462
PRARKRLEAGNLG [L9A]	0.623
PRARKRLELGQLG [N11Q]	-0.346
PDARKRLELGNLG [R2D]	0.261
PRPRKRLELGNLG [A3P]	0.0485
PRAMKRLELGNLG [R4M]	0.204
PRARKRAELGNLG [L7A]	-0.0922
PRARKRLELGNSG [L12S]	0.149
PRARKRLELGCLG [N11C]	0.283
PRARKRLELGNEG [L12E]	0.26
PRARKRLELGNLF [G13F]	-0.241
PRARRRLELGNLG [K5R]	0.0856
PRARWRLELGNLG [K5W]	-0.121

Some of these lines once more (series 2):
Oligonucleotide	log2 enrichment
GCAGGAAGUAAAAACAAAUGGAAAUGCUCCGGAUAGUGGCAGGGGUGGGGGUUGCUAAGGAAAGGGUGGGAUGGGAGUGGGUAAAGAGUU	1.37
CAAGUCCUGUGCUACACAUCGUAUGUACCGAAUCGGGUGGGUUUUUUUGGGAGGGAAAGUAUUAUGUUACGCCGUUCGGAUCUGCACUUC	0.362
ACCAUGCAGGUGGGCAUCUUUGGGAAGUGGGGCAAGGGGGGGAUAGGGAGGGGGGUAACACUUUGGGAUCAGGUGGUCCCAGGUCGUUUC	0.825
UCCUGUGCUACACAUCGUAUGUACCGAAUCGGGGUUUUUGGGGUUUUUGGGGAAAGGGGAAAGUAUUAUGUUACGCCGUUCGGAUCUGCA	0.865
CUGUGCUACACAUCGUAUGUACCGAAUCGGGGCCCCCCGGGGCCCCCCGGGGCCCCCCGGGAAAGUAUUAUGUUACGCCGUUCGGAUCUG	-1.51
CCUCUGGACGAGACCAGCCAGAUGAGCGACCUCCCGGUGAAGGUGAUCCACGUGGAGAGUGGGAAGAUCCUCACAGGCACAGAUGCCCCC	0.645
UAACUUUAGAGGAGGAUCUGAUGGAUAUGGCAGUGGACGUGGACUUGGGGAUGGCUAUAAUGGGUAUGGAGGAGGACCUGGAGGUGGCAA	0.283
CUCAAGUCCUGUGCUACACAUCGUAUGUACCGAAUCGGUUGGUUGGGGUUGGGGAAAGUAUUAUGUUACGCCGUUCGGAUCUGCACUUCC	-0.0814
UGAUGGGACAACACCCGAAAGGAUAGCACAAAUAACAGGACCUCCAGACCGAUGUCAACAUGCUGCAGAAAUUAUUACAGACCUUCUUCG	0.471
